Measurements pooled from the literature.
Each numbered part is a random draw from the data of one study; scales do not carry over between parts.

Series 1
Target: Centromere-binding protein 1, full length, His-tagged (CBF1, Saccharomyces cerevisiae, UniProt P17106, residues 1-351)
Chain of UniProt P17106 (whole entry, looked up): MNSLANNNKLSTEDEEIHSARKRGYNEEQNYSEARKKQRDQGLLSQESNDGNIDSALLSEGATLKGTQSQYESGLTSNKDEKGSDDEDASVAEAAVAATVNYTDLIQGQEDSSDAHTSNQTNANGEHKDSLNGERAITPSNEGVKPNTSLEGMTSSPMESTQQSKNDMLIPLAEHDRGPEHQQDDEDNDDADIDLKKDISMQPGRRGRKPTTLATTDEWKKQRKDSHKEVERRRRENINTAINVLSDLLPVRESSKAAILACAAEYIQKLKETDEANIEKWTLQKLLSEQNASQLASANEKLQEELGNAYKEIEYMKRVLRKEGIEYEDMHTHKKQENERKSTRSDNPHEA
Method: competition protein-binding microarray
Molecule type: double-stranded DNA, one strand shown
Medium: in vitro
Tested at: 2 µM
Notes: whole 60-bp probe, lowest competitor level
Together with: Pho4 competitor, 0.05 µM
Direction: higher = stronger binding
Shared flanks, not repeated: … GTCTTGATTCGCTTGACGCTGCTG
Oligonucleotide	fluorescence intensity [a.u.]
CTTCTGTAAATTTTTCACGTGATGTGAAGCGCCCCG	2910
AGCCAGGTTGCTTCACACGTGTTGGTGTACGTTAAG	947
CTAACGAAGGTTTGAGTCGTGGGTGACAAGCCAAGT	69.4
CTTTCCCGATCTTGCCTTGTGGGTGTAGCACATTTG	76.1
CTAACGAAGGTTTGTCACCAGACTTACAAGCCAAGT	79.4
GACCTGGAGGAAGAACATGTGCCCTTGATTCAAGGC	160
CGGGGTTAAGTTTGTCACGTTACTTGCTTGCAGCAG	630
TATCGTCAATCAACAAGCATGACAGACCAGCAACAT	117
CTAACGAAGGTTTGTATAGTGGGTGACAAGCCAAGT	61.3
CTGAACATCCTATTCCTCGTGGCCGAATGGTTACGG	80.3
AAACCAATTGGTCGGCACGTTCTGGCAAATGCGTCC	143
TAACCTTTAAGCCGTCACAAATAAATAGCCTTGTTG	72
ATTACCCTTGTTTTTCAATTGAAAACCCGGAACGAT	79
ATTTTTACGGTTACCCACGTACTGCCAGCCATTAGA	71.1
CTAACGAAGGTTTGCATTGTGGGTGACAAGCCAAGT	70.2
CGTCCTAGTGATTGCCCGGTGGGTGCCATGAGGAAG	88.4
AGAAAAAAACATGGCCACATGTAGTATCGACTGACA	94
TAATGCCCGACATTGGACGTGGGACGATAAAGATTG	60.8
TGTTCTTATGGCTTGCATGTGCTCTGTATGTATATA	184

Series 2
Target: Interferon regulatory factor 7, full length, phosphomimetic (IRF7, Homo sapiens, UniProt Q92985, residues 1-503, S101K/S471D/S472D/S475D/S476D/S477D/S483D/S484D/S487D)
Method: protein-binding microarray
Molecule type: double-stranded DNA, one strand shown
Medium: in vitro
Tested at: 250 nM
Notes: 60-bp whole probe
Together with: salmon DNA 0.4 mg/ml
Baseline: random background probes
Direction: higher = stronger binding
Shared flanks, not repeated: GCCTAGCAC … GTCTTGATTCGCTTGACGCTGCTG
Residues (chain): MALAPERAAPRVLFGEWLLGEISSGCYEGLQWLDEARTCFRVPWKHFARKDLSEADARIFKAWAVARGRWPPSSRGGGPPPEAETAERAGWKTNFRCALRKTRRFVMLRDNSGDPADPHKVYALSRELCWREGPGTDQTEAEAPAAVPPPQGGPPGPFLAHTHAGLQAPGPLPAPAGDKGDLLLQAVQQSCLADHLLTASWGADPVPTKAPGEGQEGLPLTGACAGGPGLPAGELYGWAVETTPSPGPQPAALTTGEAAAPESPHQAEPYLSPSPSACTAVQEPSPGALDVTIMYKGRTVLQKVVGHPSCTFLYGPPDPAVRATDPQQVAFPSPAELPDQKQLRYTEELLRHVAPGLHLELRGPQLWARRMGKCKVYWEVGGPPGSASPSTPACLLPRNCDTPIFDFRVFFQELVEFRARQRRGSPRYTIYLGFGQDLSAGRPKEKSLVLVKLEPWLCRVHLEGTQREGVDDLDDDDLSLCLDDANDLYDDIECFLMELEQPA
Oligonucleotide	log fluorescence [z-score]
TCATGTGTTACTTTCTAACTGTGCTAG	0.246
GACTAACTGGGGTATCGAGACGTGCTA	-0.148
GACGGTATCCTTCTCCTGATGTGCTAG	0.241
ATTTTTTTCATTATTGTTTCGTGCTAG	1.6
TTTGATCTCAGTATCGATTAGTGCTAG	0.942
TCAGCTCTAGGTTCTCTGACTGTGCTA	-0.425
TTAGGTATCGTCACTGGGTTAGTGCTA	-0.241
TCATGCTTGCGTCTGGGACTGTGCTAG	-0.802
TCAATGTTCCCTATTTAACTGTGCTAG	3.39
CTTTCACCTCTCGGCCTGATGTGCTAG	1.35
GACGGTATCCTGCTCCTGACGTGCTAG	-0.401
GACAGACTGGGTTTCGGGACGTGCTAG	1.91
TTAGATTTCGGGTCTCGATTAGTGCTA	2.54
CTGCTGGCCTGTTGCTGGAAGTGCTAG	-1.22
GACGAGCTCAGTCTCGAGACGTGCTAG	0.2
GACGAACTGGGGTTTCGAGGCGTGCTA	0.773
TGTTGGTAATTTTGCTATTTGTGCTAG	0.0322
TTAGGTATCGGCTATCGGTTAGTGCTA	-0.0916
TCATGTTTTAAATTCTAACTGTGCTAG	0.902
AACGGACTGGACACTGGGGACGTGCTA	-0.353
GACGATATCGGGACGGGAGACGTGCTA	-0.307
TTAGAACTGAGCCTGGATTAGTGCTAG	-0.489
TCATGGATGTGTTTTAAACTGTGCTAG	-0.425
GACGGTTTACTTTCCCTGACGTGCTAG	0.617
TTATATATCGGGTATCGATTAGTGCTA	0.966

Series 3
Target: Histone acetyltransferase KAT6A, both winged helices, GST fusion (KAT6A, Homo sapiens, UniProt Q92794, residues 1-181)
Method: protein binding microarray
Molecule type: double-stranded DNA, one strand shown
Medium: in vitro
Tested at: not given
Notes: 8-mer, flanks averaged, mean of 2 arrays, mostly near background
Baseline: not given
Direction: higher = stronger binding
Construct (chain): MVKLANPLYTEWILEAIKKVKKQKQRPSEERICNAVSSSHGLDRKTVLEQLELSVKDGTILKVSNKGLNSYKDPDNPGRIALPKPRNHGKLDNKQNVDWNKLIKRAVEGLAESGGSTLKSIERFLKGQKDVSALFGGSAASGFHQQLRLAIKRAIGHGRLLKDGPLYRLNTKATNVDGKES
Oligonucleotide	E-score
AATCGATG	-0.151
GCGTTTAC	0.185
ATGTGTTG	-0.08
AGTACTGG	-0.22
CTTCAAAG	-0.111
ACAAGAAA	-0.036
AATTCGCT	-0.0258
ACAGGACA	-0.0936
AGGCTTAT	-0.144
GGTACTGA	0.0708
TTCGGCAA	0.067
ATAGCGAG	-0.0112
ACTTGGTA	-0.204
ATATAGTA	-0.111
CACGTCCC	-0.0743
CCGCATGA	0.0472
ACGGCACT	0.247
ACTGTAGG	-0.105
TGAAACCA	-0.12
ATAGCAAT	-0.199
TATTACCA	-0.109

Series 4
Target: RNA binding protein fox-1 homolog 2, RRM domain, GST-SBP tag (RBFOX2, Homo sapiens, UniProt O43251-10, residues 100-194)
Method: RNA Bind-n-Seq
Molecule type: RNA
Medium: in vitro
Tested at: 365 nM
Notes: natural RNA segment, single round, ends assumed
Baseline: no-protein control
Direction: higher = stronger binding
Shared flanks, not repeated: GGGAGUUCUACAGUCCGACGAUC … UGGAAUUCUCGGGUGCCAA
Construct (chain): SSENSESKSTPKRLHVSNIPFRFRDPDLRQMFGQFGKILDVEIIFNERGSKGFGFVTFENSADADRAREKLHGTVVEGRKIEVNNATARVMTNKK
Oligonucleotide	RBNS enrichment (R)
CCAACACGUCACCCGAGUAGAAGCUGGGCAAGGCCCUACCAUCCUGGCCGUCUGUUCACAAGCCCAAGGUGCUAGAACUAGCUUAGGAGACAUGCAGGCCACAGGGCUUC	0.454
UUCUCUGGAGCACCCUAUUUGCUUGGCUCUUUCUGGAAGUAGGUCUCACCCAUGAGGGACAACAGGUGACUCAGAAAGGCAGUGUCACAACUAGAACACUCUGCCUUGGU	0.312
AAACACAUCUGUCAUUGUCUUGUGGACGUGGAAAGGAAGCUACUGUCCUCACACUCCUGGAUCACUGAGCAGAAUGAACAUUUUCUCCAGCCUCUGAGACUAUCGCUCUU	5.14
GCAUAGGAGAAAAAAGUAUGAUUUAAAGAUGUGCUAGGGGGAGGGAAAAAUGGGCAACUUUUACAUUUGACUACAUUAUAUACCUAUGUAUAAAAGUGCGGUGUAACCAU	1.24
UGCAAGCCUUUGUCCGGCACGUGCAGAGUAGGGCGCCGACUGCUGUCUACCUGCUGCUCCUACCAACCUGCACUGCAGCCUGGGUAGAGGGCGCUGCCACCACAAGGCCA	0.234
GGCUCUUUCCUAGGCCGCACAAGCUUCUGCAGCAAUCUCAGAGACUGAAACAGCUGAGAGCCUAUUAGAGACCUGCUGCAAUGGCUGUCAGCCUUGGGAAAGGGGGACUC	0.918
AAGACCUGAAGUUCAACAGUGGAUUCCUUACCAAAUAGUUUUUAAAGUAUGCUCUAAGGAACAAUGUUUUAAUGAAAUCUUGGAUACAAAGUGGAAUAAAAGGUUUCUGA	0.447
CCCCCUCUCUGUGGCAGUUUCAUAUUUGCUAAUACGAAUUUGCUCAUUAAACAUUUUGUUGUAUUUUACUUUAUGGAUCCUCAUCUGUGUCCAGUGUGUCCGCCCGUCUC	0.916
GCAAGGAUCAGAGCCAGACACCAGGAGUCACAGGCCCCACCCAGGAAGGGCAUUCAGGGCCCCUGGGCACCGCUUCUGUUGAAGCAGGGGCUUCUGGGCCCCUGGGUAUC	0.323

Some of these lines once more (series 3):
Oligonucleotide	E-score
ACTGTAGG	-0.105
ACAGGACA	-0.0936
TGAAACCA	-0.12
CCGCATGA	0.0472
TTCGGCAA	0.067
